Published values from different studies.
Parts stem from different laboratories: compare values within a part only. Changes are numbered by the printed parent chain.

Study 1 — target: CCNA1, cyclin fold, Cln2 fusion (human); method: yeast growth competition, sequencing; sample: yeast; setting: weak parent motif; relative to: not given; reading: higher = stronger binding; quantity: normalised enrichment score
Starting sequence: ORC1 docking peptide (human); PRARKRLELGNLG
PRARKRLELGNLL [G13L]: 0.101
PMARKRLELGNLG [R2M]: 0.496
PRARKALELGNLG [R6A]: 0.16
PRARKRLELMNLG [G10M]: 0.34
PRAHKRLELGNLG [R4H]: 0.455
CRARKRLELGNLG [P1C]: 0.699
PRARKRLELGNLV [G13V]: 0.426
PRARKRLWLGNLG [E8W]: 0.297
PRARKRLELGNTG [L12T]: 0.49
PRSRKRLELGNLG [A3S]: 0.472
PRERKRLELGNLG [A3E]: 0.507
PRARKRLELGNDG [L12D]: 0.154
PRIRKRLELGNLG [A3I]: 0.00995
PRARKRLELGNMG [L12M]: 0.572
PRARGRLELGNLG [K5G]: 0.245
PRARKRLYLGNLG [E8Y]: 0.288
PRARKRCELGNLG [L7C]: 0.182
PRARKRLEEGNLG [L9E]: 0.25
PRHRKRLELGNLG [A3H]: 0.327
PRARKILELGNLG [R6I]: 0.602
PNARKRLELGNLG [R2N]: 0.336

Study 2 — method: protein binding microarray; form: double-stranded DNA, one strand shown; sample: in vitro; tested at: not given; relative to: not given; reading: higher = stronger binding; quantity: E-score
Target: Histone acetyltransferase KAT6A, both winged helices, GST fusion (KAT6A, Homo sapiens, UniProt Q92794, residues 1-181)
Setting: 8-mer, flanks averaged, mean of 2 arrays, mostly near background
Construct (chain): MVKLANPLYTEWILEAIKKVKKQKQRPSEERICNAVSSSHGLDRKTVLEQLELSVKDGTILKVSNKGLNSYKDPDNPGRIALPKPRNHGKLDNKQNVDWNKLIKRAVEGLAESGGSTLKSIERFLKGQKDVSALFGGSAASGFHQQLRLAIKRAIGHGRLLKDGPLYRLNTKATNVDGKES
ACCTTCGG: -0.0982
CAGTTCCC: 0.111
ACACACCA: -0.156
CGTCTCAC: 0.0295
CAGGTACG: 0.0843
ATAGGGAT: -0.141
CTCGGGTC: 0.171
AGGGTCTC: -0.177
AGGTCGAA: -0.133
AAGATAGC: -0.00818
TATCCGGA: 0.151
CAAATGCA: -0.102
AGGGGCGC: 0.204
ACACGGGA: 0.142
CGAGGGTC: 0.00504
CGCAGTAC: 0.0661

Study 3 — method: protein-binding microarray; form: double-stranded DNA, one strand shown; sample: in vitro; tested at: 940 nM top; setting: 60-bp whole probe; together with: salmon DNA 0.4 mg/ml; relative to: random background probes; reading: higher = stronger binding; quantity: fitted relative affinity; constant ends, left off below: GCCTAGCAC … GTCTTGATTCGCTTGACGCTGCTG
Target: Interferon regulatory factor 5, full length, phosphomimetic (IRF5, Homo sapiens, UniProt Q13568-2, residues 1-514, S451D/S453D/S456D/S462D)
TTAGGTTCCCTTTTCCATTAGTGCTAG: 1.05 z-score
TTAGATATCGGGTTTCGATCAGTGCTA: 5.16 z-score
GACGATCTCGGTATCGGGACGTGCTAG: 2.61 z-score
TTAGGACTGGGGACTGGGCTAGTGCTA: -0.286 z-score
TACGGTCTCGGACTGGGGACGTGCTAG: 0.704 z-score
CAGAATCCAGCTCAGGTTGTGTGCTAG: -1.01 z-score
GATGGTATCCTTTTCCTGACGTGCTAG: 0.901 z-score
GACGGTTTCGACATTGGGGACGTGCTA: 7.45 z-score
TTAGATTTCGGGTATCGATGAGTGCTA: 2.82 z-score
TTAGGTTTCGACTATCGGTAAGTGCTA: 9.59 z-score
TTAGGACTGCTTGTCCTTTAGTGCTAG: -0.628 z-score
GACGAACCGGGGACTGGAGACGTGCTA: -0.126 z-score
TTAGGTTTCGGGACTGGGTCAGTGCTA: 7.74 z-score
GACGATTACGGGTATCGAGACGTGCTA: 0.674 z-score
TCAGTTCTTATCCTTCCCACTGTGCTA: 1.33 z-score
TTAGATATCGGGACTGGATTCGTGCTA: -0.0351 z-score
TCAATCCTTCATTTGAAACTGTGCTAG: -0.131 z-score
TGAGGTATCGACACTGGGTTAGTGCTA: 2.88 z-score
CACCTTCTTCATCAAGGACAGTGCTAG: 0.564 z-score

Other studies, line by line
PhoQ, residues 284 288 289 292 302 303 SCEHLI  fold induction (PhoP, residues 12 14 15 18 19 LYFRQ (Escherichia coli, UniProt P23836); Sort-seq, refers to: YFP reporter; E. coli; PhoQ-PhoP variant library, together with: 10 µM Mg2+; relative to: high Mg2+ state, higher = stronger signaling): 20.9

Some of these lines once more (study 1):
PRIRKRLELGNLG [A3I]: 0.00995
PMARKRLELGNLG [R2M]: 0.496
PNARKRLELGNLG [R2N]: 0.336
PRARKRLELGNDG [L12D]: 0.154
PRAHKRLELGNLG [R4H]: 0.455
PRARKRLELGNLL [G13L]: 0.101
